Measured values of several laboratories.
A part holds a random share of what one study measured. “And” joins repeats or separate records; there may be more than shown.
UniProt O94804, sequence (whole entry, looked up): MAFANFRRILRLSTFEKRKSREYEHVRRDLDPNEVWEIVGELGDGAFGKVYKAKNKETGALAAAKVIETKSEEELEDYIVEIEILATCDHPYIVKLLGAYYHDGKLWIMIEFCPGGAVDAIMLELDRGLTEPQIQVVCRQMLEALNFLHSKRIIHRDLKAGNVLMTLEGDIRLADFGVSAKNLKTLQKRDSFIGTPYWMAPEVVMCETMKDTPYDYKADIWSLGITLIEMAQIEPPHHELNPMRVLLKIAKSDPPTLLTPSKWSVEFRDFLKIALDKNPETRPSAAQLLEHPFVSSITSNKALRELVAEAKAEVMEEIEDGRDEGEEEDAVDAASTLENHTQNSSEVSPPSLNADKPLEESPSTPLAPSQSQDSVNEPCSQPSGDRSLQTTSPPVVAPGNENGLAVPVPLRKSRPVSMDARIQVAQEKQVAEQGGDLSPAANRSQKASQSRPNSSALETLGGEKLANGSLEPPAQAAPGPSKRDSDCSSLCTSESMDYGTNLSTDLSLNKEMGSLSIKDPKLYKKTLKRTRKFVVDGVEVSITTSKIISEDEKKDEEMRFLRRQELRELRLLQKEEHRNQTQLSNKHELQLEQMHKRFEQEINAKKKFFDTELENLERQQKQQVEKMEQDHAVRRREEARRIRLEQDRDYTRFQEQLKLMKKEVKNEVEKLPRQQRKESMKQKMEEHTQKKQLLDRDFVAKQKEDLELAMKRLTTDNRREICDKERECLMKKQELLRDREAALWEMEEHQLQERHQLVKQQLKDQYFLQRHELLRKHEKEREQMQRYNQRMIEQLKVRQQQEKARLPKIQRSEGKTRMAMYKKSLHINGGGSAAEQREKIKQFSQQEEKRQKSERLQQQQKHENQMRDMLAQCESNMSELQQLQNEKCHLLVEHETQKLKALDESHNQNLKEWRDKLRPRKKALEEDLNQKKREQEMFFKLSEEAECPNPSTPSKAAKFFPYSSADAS
UniProt Q12852, sequence (whole entry, looked up): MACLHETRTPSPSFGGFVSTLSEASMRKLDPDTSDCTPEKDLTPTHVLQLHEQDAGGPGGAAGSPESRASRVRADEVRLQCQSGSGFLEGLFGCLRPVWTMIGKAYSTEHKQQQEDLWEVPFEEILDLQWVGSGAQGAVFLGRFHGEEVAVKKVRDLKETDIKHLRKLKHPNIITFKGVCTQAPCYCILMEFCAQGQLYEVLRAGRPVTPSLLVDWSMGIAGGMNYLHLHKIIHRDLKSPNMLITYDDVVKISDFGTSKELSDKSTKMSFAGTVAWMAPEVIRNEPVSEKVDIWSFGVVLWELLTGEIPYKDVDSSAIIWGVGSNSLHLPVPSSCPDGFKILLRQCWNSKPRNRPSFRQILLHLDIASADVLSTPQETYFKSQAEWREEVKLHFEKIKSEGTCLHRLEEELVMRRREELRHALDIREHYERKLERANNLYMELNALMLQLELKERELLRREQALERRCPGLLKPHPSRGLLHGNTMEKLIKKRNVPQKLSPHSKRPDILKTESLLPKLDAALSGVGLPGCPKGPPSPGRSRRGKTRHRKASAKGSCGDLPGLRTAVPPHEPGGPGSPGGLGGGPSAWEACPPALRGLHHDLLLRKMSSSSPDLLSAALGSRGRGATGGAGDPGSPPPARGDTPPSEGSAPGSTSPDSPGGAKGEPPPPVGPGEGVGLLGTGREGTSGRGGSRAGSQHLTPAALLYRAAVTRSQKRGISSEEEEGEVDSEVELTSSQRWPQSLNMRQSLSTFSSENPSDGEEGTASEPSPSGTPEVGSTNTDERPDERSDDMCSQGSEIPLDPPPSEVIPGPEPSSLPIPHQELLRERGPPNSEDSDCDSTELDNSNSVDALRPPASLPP
UniProt Q9UM73, sequence (whole entry, unmodified, looked up): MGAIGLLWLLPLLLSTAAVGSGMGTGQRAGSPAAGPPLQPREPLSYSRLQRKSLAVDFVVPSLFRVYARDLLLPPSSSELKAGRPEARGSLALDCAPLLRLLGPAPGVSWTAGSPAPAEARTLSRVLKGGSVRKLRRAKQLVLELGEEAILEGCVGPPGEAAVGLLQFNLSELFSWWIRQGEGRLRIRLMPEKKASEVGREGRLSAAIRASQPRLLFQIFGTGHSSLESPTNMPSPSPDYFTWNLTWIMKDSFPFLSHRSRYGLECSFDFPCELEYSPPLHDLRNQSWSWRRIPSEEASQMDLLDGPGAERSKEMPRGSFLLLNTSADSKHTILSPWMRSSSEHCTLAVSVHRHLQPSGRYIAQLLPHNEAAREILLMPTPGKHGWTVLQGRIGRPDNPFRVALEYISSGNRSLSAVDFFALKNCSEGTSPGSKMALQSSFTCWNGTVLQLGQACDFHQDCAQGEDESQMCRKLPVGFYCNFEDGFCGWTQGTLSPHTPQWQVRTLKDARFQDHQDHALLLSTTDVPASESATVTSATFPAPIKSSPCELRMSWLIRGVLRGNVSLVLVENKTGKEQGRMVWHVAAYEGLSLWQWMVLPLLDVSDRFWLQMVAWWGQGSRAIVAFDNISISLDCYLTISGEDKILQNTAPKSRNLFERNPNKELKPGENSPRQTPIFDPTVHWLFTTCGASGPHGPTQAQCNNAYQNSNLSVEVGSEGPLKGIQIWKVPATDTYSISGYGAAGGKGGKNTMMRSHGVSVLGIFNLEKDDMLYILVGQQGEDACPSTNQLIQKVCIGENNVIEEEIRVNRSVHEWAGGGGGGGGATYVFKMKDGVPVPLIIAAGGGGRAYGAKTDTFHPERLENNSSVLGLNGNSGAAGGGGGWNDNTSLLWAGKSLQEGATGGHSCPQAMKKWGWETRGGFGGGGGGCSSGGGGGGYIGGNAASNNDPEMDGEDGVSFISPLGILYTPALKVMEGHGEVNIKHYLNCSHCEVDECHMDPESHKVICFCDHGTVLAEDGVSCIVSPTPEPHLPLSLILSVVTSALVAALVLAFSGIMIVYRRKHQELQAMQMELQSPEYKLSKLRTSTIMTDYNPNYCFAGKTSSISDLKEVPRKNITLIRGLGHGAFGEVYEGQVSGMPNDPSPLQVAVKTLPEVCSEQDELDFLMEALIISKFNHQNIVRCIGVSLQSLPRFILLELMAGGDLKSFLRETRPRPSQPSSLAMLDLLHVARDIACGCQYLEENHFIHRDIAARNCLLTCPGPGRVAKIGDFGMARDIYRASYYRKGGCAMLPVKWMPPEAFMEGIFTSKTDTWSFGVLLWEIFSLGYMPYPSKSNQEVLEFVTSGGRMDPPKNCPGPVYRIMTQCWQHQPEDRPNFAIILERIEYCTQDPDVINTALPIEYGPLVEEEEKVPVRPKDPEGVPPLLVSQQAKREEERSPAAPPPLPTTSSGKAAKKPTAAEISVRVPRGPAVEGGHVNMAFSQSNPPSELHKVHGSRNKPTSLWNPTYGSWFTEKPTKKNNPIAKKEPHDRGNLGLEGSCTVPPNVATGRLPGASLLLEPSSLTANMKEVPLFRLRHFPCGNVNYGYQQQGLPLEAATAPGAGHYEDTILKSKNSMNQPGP
UniProt Q8WXR4, sequence (whole entry, looked up): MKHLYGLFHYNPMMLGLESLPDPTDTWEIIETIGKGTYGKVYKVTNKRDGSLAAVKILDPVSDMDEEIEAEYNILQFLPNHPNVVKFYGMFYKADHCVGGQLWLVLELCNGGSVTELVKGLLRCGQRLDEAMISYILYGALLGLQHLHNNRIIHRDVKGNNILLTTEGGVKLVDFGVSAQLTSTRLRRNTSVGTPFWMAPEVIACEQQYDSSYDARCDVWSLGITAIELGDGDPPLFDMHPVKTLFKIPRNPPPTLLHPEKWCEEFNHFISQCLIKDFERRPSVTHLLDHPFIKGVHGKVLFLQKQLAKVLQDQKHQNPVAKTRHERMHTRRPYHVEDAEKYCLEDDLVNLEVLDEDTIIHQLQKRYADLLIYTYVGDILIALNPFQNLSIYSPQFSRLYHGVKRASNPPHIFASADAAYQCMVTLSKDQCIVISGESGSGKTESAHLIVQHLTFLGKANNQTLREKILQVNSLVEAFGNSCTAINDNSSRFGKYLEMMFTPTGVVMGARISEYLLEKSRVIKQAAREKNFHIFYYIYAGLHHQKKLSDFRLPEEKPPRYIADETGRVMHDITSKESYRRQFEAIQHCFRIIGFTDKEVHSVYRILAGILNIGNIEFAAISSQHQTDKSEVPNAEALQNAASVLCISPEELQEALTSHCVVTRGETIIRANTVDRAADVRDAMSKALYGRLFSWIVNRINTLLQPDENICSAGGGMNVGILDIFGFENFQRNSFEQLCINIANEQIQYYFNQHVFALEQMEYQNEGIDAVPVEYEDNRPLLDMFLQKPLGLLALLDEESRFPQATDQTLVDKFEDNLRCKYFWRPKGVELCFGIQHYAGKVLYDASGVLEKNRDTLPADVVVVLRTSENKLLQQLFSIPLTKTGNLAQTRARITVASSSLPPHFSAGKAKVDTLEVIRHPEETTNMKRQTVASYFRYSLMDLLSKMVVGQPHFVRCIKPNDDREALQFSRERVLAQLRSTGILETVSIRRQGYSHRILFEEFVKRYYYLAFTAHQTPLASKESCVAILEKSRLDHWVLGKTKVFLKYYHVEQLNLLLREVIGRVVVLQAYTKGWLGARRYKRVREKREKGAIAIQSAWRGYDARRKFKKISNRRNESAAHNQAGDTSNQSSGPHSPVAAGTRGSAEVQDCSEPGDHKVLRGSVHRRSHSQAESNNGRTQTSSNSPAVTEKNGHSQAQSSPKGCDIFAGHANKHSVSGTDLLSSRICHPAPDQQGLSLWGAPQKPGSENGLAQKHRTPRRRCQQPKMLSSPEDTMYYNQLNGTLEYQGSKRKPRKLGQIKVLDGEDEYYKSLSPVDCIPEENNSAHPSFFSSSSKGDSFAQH

Set 1 — method: PI flow cytometry; time: 24 h
SMILES: CC(C)C[C@@H]1NC(=O)[C@@H](N(C)C(=O)[C@H](CC2CCC2)NC(=O)[C@@H]2C[C@@H](F)CN2C(=O)C2(C(F)(F)F)CC(F)(F)C2)CCCCNC(=O)C2(CC2)NC(=O)[C@H](Cc2cc(Cl)ccc2Cl)N(C)C1=O
cell line | conditions | S phase cells
NCI-H1299 | 20 nM | 14.2% and 17.8% and 19.6%
NCI-H82 | 2000 nM | 42.6% and 41.8% and 34.1%
HCC4006 | 20 nM | 26.5% and 21.3% and 34.5%
A549 | 2000 nM | 17.3% and 26.2%
A549 | 20 nM | 19.9% and 15.8% and 24.3%
HCC4006 | 200 nM | 31.9% and 32.4% and 20.8%
NCI-H82 | 20 nM | 36.4% and 30.4% and 36.8%

Set 2 — cell line: HaCaT; concentration: 100 µM; time: 60 h
Structure (SMILES) | viability
Cc1ccc(NC(=O)C2(c3ccc4c(c3)OC(F)(F)O4)CC2)nc1-c1cccc(C(=O)O)c1 | 122%
Cc1ccc(S(=O)(=O)NC(=O)NN2CC3CCC[C@@H]3C2)cc1 (stereo in doubt) | 134%
CC1=C(C/C=C(\C)CCC[C@H](C)CCC[C@H](C)CCCC(C)C)C(=O)c2ccccc2C1=O | 115%
CCCOc1ccc(C(=O)OCCN(CC)CC)cc1N | 143%
CC[C@@H]1/C=C(\C)C[C@H](C)C[C@H](OC)[C@H]2O[C@@](O)(C(=O)C(=O)N3CCCC[C@H]3C(=O)O[C@H](/C(C)=C/[C@@H]3CC[C@H](Cl)[C@H](OC)C3)[C@H](C)[C@@H](O)CC1=O)[C@H](C)C[C@@H]2OC | 47.6%
CC1CNc2c(cccc2S(=O)(=O)N[C@@H](CCCNC(=N)N)C(=O)N2CC[C@@H](C)C[C@@H]2C(=O)O)C1 (some centres unmarked) | 146%
Cc1cc(=O)[nH]c(=S)[nH]1 | 152%
OCCN1C[C@H](O)[C@@H](O)[C@H](O)[C@H]1CO | 131%
CO[C@H]1/C=C/O[C@@]2(C)Oc3c(C)c(O)c4c(O)c(c(/C=N/N5CCN(C)CC5)c(O)c4c3C2=O)NC(=O)/C(C)=C\C=C\[C@H](C)[C@H](O)[C@@H](C)[C@@H](O)[C@@H](C)[C@H](OC(C)=O)[C@@H]1C | 108%
CC(C)[C@H](N)C(=O)OCCOCn1cnc2c(=O)[nH]c(N)nc21 | 149%

Set 3 — method: immunoblot; baseline: DMSO
SMILES: C[C@@H]1OCC2(CCN(c3cnc(Sc4ccnc(N)c4Cl)c(N)n3)CC2)[C@@H]1N
cell line | conditions | phospho-ERK level [%]
Ba/F3 KRAS G12D | 1 µM | 60
Ba/F3 NRAS G12D | 0.1 µM | 98
Ba/F3 NRAS G12D | 1 µM | 65
Ba/F3 KRAS G12D | 0.1 µM | 79

Set 4 — method: competition with immobilised ligand; concentration: 1 µM
SMILES: O=C(NCc1ncc(C(F)(F)F)cc1Cl)c1ccc2c(c1)C1(CCS(=O)(=O)CC1)[C@H](C1CC1)N2S(=O)(=O)c1ccc(F)cc1
target | test | remaining binding [%]
Ribosomal protein S6 kinase alpha-3, C-terminal kinase domain (RPS6KA3, Homo sapiens, UniProt P51812) | cell-free assay | 100
Myosin-IIIb (MYO3B, Homo sapiens, UniProt Q8WXR4) | binding | 74
Ribosomal protein S6 kinase alpha-6, C-terminal kinase domain (RPS6KA6, Homo sapiens, UniProt Q9UK32) | cell-free assay | 87
Focal adhesion kinase 1 (PTK2, Homo sapiens, UniProt Q05397) | cell-free assay | 100
Vascular endothelial growth factor receptor 1 (FLT1, Homo sapiens, UniProt P17948) | cell-free assay | 98
Dual serine/threonine and tyrosine protein kinase (DSTYK, Homo sapiens, UniProt Q6XUX3) | cell-free assay | 76
Misshapen-like kinase 1 (MINK1, Homo sapiens, UniProt Q8N4C8) | cell-free assay | 90
Phosphorylase b kinase gamma catalytic chain, skeletal muscle/heart isoform (PHKG1, Homo sapiens, UniProt Q16816) | cell-free assay | 100
Serine/threonine-protein kinase OSR1 (OXSR1, Homo sapiens, UniProt O95747) | cell-free assay | 87
Receptor-type tyrosine-protein kinase FLT3 (FLT3, Homo sapiens, UniProt P36888, D835V/ITD) | cell-free assay | 81
Serine/threonine-protein kinase 10 (STK10, Homo sapiens, UniProt O94804) | cell-free assay | 54
Tyrosine-protein kinase ABL1, non-phosphorylated (ABL1, Homo sapiens, UniProt P00519, H396P) | cell-free assay | 100
Mitogen-activated protein kinase kinase kinase 12 (MAP3K12, Homo sapiens, UniProt Q12852) | cell-free assay | 82
ALK tyrosine kinase receptor (ALK, Homo sapiens, UniProt Q9UM73, L1196M) | cell-free assay | 76
